Published values from different studies.
Every numbered part comes from another study and shows a few of its results, in no order.
UniProt P22607, sequence (whole entry, looked up): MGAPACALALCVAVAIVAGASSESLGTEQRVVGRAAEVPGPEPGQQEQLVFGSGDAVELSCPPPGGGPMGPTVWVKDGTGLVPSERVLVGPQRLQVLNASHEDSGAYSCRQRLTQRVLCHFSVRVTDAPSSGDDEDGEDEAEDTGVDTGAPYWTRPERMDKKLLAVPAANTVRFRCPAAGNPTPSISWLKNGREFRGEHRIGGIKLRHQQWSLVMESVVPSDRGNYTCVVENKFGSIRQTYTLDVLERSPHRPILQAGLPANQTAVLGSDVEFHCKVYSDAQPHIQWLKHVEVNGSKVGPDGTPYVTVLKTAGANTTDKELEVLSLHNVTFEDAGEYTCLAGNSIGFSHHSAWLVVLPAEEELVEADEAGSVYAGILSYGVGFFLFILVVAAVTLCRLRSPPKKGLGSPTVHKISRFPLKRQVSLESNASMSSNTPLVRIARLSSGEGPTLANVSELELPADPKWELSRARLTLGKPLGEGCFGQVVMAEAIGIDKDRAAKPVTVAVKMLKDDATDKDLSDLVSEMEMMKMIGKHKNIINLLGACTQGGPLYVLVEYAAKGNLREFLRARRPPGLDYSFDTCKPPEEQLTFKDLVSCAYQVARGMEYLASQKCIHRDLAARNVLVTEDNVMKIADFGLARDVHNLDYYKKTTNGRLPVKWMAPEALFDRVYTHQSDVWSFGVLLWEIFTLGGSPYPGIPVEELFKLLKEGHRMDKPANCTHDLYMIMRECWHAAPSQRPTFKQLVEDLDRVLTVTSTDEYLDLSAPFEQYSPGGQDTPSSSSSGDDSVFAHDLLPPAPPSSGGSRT
UniProt P48730, sequence (whole entry, looked up): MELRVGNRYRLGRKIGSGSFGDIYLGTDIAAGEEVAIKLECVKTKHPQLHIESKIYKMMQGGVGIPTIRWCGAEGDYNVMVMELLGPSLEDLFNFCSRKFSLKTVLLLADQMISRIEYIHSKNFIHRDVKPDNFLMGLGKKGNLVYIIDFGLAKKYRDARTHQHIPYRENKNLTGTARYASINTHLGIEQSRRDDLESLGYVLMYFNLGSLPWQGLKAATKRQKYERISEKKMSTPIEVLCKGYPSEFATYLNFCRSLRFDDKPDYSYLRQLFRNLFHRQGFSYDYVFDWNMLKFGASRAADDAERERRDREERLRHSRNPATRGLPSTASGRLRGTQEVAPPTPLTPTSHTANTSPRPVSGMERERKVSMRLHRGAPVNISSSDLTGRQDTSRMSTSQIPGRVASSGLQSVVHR
UniProt Q96J92, sequence (whole entry, looked up): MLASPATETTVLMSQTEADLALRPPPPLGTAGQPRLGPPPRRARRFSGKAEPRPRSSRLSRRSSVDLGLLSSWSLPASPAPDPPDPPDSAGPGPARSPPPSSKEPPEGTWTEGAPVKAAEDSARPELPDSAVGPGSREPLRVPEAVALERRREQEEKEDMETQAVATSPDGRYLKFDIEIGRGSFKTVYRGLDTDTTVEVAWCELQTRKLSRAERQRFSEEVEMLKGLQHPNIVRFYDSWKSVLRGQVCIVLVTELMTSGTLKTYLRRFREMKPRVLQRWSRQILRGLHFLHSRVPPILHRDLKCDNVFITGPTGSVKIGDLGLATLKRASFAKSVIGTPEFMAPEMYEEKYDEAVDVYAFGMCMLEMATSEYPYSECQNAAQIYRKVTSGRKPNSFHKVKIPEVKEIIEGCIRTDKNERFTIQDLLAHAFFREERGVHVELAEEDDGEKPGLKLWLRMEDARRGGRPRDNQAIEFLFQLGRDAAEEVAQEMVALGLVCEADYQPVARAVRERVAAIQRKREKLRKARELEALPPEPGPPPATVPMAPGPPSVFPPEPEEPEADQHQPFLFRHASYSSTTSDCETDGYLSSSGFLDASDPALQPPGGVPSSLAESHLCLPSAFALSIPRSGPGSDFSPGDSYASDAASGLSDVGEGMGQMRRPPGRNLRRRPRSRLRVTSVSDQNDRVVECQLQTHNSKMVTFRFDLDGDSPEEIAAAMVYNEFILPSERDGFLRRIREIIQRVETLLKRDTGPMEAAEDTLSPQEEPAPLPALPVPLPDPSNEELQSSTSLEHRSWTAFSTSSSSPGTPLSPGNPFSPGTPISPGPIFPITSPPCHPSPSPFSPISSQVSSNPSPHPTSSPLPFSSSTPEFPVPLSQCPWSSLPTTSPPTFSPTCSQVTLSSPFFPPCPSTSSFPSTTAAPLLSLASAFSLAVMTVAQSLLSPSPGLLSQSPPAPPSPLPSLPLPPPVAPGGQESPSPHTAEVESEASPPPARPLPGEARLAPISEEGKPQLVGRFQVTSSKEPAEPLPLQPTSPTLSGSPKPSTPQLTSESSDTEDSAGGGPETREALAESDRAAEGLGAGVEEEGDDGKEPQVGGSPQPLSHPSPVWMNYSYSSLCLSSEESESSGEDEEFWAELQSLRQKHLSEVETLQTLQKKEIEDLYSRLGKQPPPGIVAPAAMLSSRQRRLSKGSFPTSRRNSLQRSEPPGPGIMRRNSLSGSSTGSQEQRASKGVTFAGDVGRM
UniProt Q13873, sequence (whole entry, looked up): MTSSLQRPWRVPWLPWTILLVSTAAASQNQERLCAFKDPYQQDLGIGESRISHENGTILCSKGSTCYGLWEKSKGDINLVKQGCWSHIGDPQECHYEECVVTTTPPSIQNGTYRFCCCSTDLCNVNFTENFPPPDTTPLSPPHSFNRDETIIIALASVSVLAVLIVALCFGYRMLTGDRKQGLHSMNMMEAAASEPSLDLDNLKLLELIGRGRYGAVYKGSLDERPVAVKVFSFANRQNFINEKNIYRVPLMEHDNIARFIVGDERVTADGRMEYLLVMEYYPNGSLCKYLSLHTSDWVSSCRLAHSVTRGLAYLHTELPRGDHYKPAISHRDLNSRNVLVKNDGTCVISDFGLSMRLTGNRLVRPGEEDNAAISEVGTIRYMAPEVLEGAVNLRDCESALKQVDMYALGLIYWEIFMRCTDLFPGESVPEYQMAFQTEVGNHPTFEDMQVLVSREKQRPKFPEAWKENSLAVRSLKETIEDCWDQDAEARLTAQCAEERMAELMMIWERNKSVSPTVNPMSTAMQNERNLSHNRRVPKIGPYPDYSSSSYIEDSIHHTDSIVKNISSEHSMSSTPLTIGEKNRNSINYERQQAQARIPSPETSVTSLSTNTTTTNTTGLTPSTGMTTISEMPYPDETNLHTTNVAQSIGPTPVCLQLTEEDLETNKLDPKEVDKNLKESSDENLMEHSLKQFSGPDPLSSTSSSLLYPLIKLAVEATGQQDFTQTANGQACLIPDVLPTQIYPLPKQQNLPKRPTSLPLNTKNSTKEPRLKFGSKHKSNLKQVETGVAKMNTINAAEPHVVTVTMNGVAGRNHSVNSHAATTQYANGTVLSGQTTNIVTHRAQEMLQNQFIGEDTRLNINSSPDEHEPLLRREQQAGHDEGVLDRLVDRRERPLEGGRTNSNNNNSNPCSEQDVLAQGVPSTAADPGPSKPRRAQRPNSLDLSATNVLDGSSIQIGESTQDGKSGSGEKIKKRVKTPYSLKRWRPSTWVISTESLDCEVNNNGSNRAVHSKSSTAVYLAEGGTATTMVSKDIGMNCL
UniProt P31751, sequence (whole entry, looked up): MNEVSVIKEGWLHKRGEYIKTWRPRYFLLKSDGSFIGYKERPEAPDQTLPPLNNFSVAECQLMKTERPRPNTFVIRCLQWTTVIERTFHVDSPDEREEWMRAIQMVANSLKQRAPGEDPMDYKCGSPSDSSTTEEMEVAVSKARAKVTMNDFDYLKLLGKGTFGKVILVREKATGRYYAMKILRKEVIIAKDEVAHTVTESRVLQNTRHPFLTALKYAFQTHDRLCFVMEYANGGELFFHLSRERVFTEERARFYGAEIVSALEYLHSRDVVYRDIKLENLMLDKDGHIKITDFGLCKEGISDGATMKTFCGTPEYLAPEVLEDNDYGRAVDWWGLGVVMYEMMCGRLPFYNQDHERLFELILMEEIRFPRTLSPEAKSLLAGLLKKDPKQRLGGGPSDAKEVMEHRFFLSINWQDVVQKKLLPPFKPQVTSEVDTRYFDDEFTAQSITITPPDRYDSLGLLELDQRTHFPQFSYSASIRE
UniProt P42685, sequence (whole entry, looked up): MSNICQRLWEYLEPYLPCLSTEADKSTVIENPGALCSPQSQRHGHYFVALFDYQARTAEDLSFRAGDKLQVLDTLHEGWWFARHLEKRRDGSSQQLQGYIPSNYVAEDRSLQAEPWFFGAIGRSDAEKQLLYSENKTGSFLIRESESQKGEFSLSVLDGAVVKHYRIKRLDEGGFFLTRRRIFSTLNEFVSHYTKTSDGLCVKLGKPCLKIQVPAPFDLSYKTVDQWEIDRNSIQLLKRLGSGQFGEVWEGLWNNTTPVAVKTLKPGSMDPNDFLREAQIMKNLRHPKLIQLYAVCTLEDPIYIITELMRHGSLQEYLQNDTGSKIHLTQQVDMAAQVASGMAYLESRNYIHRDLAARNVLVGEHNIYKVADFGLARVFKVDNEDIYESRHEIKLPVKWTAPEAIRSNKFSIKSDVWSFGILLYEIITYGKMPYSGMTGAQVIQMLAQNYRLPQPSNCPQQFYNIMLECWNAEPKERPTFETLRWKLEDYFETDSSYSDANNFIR
UniProt P78368, sequence (whole entry, looked up): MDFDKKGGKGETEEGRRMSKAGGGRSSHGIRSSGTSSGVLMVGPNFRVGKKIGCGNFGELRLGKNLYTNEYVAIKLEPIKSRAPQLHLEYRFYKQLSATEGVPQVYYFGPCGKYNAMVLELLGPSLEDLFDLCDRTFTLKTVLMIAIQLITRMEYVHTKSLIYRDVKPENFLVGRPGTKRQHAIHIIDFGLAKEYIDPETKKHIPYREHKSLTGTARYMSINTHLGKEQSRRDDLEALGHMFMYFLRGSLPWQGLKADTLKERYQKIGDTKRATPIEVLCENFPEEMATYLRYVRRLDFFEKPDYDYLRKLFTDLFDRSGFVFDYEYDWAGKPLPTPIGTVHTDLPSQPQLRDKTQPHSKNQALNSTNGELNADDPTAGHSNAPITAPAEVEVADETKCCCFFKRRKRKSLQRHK

Sample 1
Compound: FC(F)(F)c1ccc(/C=C/c2nc(COc3ccc(CCCCn4ccnn4)cc3)co2)cc1
Observed: enzyme activity
Action: inhibitor
Concentration: 0.5 µM
Baseline: control
The remaining activity was 92.6% (Serine/threonine-protein kinase Nek6 (NEK6, Homo sapiens, UniProt Q9HC98)).
For Serine/threonine-protein kinase A-Raf (ARAF, Homo sapiens, UniProt P10398): remaining activity read 102%.
Dual specificity mitogen-activated protein kinase kinase 2 (MAP2K2, Homo sapiens, UniProt P36507) — remaining activity: 114%.
For Casein kinase I isoform gamma-2 (CSNK1G2, Homo sapiens, UniProt P78368): remaining activity read 96.7%.
Ephrin type-A receptor 3 (EPHA3, Homo sapiens, UniProt P29320) — remaining activity: 92.7%.
Ribosomal protein S6 kinase alpha-2 (RPS6KA2, Homo sapiens, UniProt Q15349) — remaining activity: 96.8%.
It gave 101% for remaining activity (Fibroblast growth factor receptor 1 (FGFR1, Homo sapiens, UniProt P11362)).
For Tyrosine-protein kinase FRK (FRK, Homo sapiens, UniProt P42685): remaining activity read 99%.
Tyrosine-protein kinase Mer (MERTK, Homo sapiens, UniProt Q12866) — remaining activity: 97.9%.
The remaining activity was 104% (Macrophage-stimulating protein receptor (MST1R, Homo sapiens, UniProt Q04912)).
It gave 100% for remaining activity (Mitogen-activated protein kinase 3 (MAPK3, Homo sapiens, UniProt P27361)).
The remaining activity was 92.8% (Activin receptor type-1B (ACVR1B, Homo sapiens, UniProt P36896)).
It gave 88.4% for remaining activity (Fibroblast growth factor receptor 3 (FGFR3, Homo sapiens, UniProt P22607)).
Serine/threonine-protein kinase TAO2 (TAOK2, Homo sapiens, UniProt Q9UL54) — remaining activity: 105%.

Sample 2
Structure (SMILES): CC(C)S(=O)(=O)c1ccc2nccc(Nc3ccc4sc(C5CCCC5)nc4c3)c2c1.Cl
Observed: kinase activity
Action: inhibitor
Concentration: 1 µM
The remaining activity was 92% (Ephrin type-B receptor 3 (EPHB3, Homo sapiens, UniProt P54753)).
For Tyrosine-protein kinase Fes/Fps (FES, Homo sapiens, UniProt P07332): remaining activity read 97%.
It gave 90% for remaining activity (Serine/threonine-protein kinase WNK4 (WNK4, Homo sapiens, UniProt Q96J92)).
Cyclin-dependent kinase 4 (CDK4, Homo sapiens, UniProt P11802) — remaining activity: 102%.

Sample 3
SMILES: O=C(Nc1cccnn1)N1CC(C/C=C/c2cncc(Oc3ccc(C(F)(F)F)cn3)n2)C1
Observed: cell-free assay
Method: competition with immobilised ligand
Concentration: 1 µM
The remaining binding was 100% (RAC-beta serine/threonine-protein kinase (AKT2, Homo sapiens, UniProt P31751)).
It gave 100% for remaining binding (Casein kinase I isoform delta (CSNK1D, Homo sapiens, UniProt P48730)).
The remaining binding was 76% (Bone morphogenetic protein receptor type-2 (BMPR2, Homo sapiens, UniProt Q13873)).
For Dual specificity protein kinase TTK (TTK, Homo sapiens, UniProt P33981): remaining binding read 100%.

Sample 4
Cell line: A-375
Concentration: 100 µM
Time: 18 h
CCC1=C(C)CN(C(=O)NCCc2ccc(S(=O)(=O)NC(=O)N[C@H]3CC[C@H](C)CC3)cc2)C1=O gave a viability of 105%.
The viability of C/C=C(/C(=C/C)c1ccc(O)cc1)c1ccc(O)cc1 is reported as 8.78%.
The viability of CO[C@H]1/C=C/O[C@@]2(C)Oc3c(C)c(O)c4c(O)c(c5c(nc6cc(C)ccn65)c4c3C2=O)NC(=O)/C(C)=C\C=C\[C@H](C)[C@H](O)[C@@H](C)[C@@H](O)[C@@H](C)[C@H](OC(C)=O)[C@@H]1C is reported as 31.5%.
For C[C@H](CCC(=O)O)[C@H]1CC[C@H]2[C@@H]3[C@@H](O)C[C@@H]4C[C@H](O)CC[C@]4(C)[C@H]3CC[C@]12C, the viability was 92.2%.

Sample 5
Species: human
Medium: microsomes or S9
Concentration: 2 µM
Time: 0.5 h
CN1CCN(C(=O)CCn2c(-c3ccccc3)cc3ccccc32)CC1 gave a remaining compound of 4.2%.
The remaining compound of O=C(N[C@H](c1ccccc1)[C@@H](O)c1ccccc1)c1ccc(F)cc1 is reported as 82%.
The remaining compound of COc1ccc(C)cc1NC(=O)c1cc2c(=O)n3cccc(C)c3nc2n1Cc1ccccc1 is reported as 34%.

Some of these lines once more (sample 1):
For Casein kinase I isoform gamma-2 (CSNK1G2, Homo sapiens, UniProt P78368): remaining activity read 96.7%.
Ephrin type-A receptor 3 (EPHA3, Homo sapiens, UniProt P29320) — remaining activity: 92.7%.
Ribosomal protein S6 kinase alpha-2 (RPS6KA2, Homo sapiens, UniProt Q15349) — remaining activity: 96.8%.
